Measurements gathered from unrelated publications.
Lines come from different studies, so protocols differ.
Matrix: plasma
Route: oral

With `Nc1ccc(-c2nc([C@H]3CCc4cc(-c5cc(Cl)ccc5-n5cnnn5)cc(=O)n43)c(F)[nH]2)c(F)n1` the Cmax was 2080 ng/mL (human; 300 mg, single dose, fasted).
For `CCCCCN1C[C@H](O)[C@@H](O)[C@H](O)[C@@H]1CO`, the Cmax was 918 ng/mL (male human; 100 mg, single dose, fasted, healthy volunteers).
`C[C@@H]1CCC[C@H](n2cnc(-c3cc(Cl)ccc3-n3cc(Cl)nn3)cc2=O)c2cc(ccn2)-c2c(cnn2C(F)F)NC1=O` gave a Cmax of 13.3 ng/mL (human; 4 mg, single dose, fasted, healthy volunteers).
With `CCCOc1ccc([C@H]2CNC(=O)N2c2ccc3[nH]cnc3c2)cc1` the Cmax was 421 ng/mL (human; 100 mg, single dose, fasted).
`C#C[C@]1(CO)O[C@@H](n2cnc3c(N)nc(F)nc32)C[C@@H]1O` gave a Cmax of 390 nM (human; 15 mg, single dose, fasted).
`CNC(=O)c1ccc(-c2cnc3ncc(Cc4ccc5ncccc5c4)n3n2)cc1F` gave a Cmax of 4910 ng/mL (human; 400 mg twice daily, multiple doses, steady state, patients).
With `CNCc1ccc(-c2[nH]c3cc(F)cc4c3c2CCNC4=O)cc1` the Cmax was 3030 ng/mL (human; 840 mg, multiple doses, twice daily, steady state, patients).
`Nc1ncc(-c2cnn(CCO)c2)c2scc(-c3ccc(NC(=O)Nc4cccc(F)c4)cc3)c12` gave a Cmax of 1270 ng/mL (human; 440 mg, patients).
For `CS(=O)(=O)n1cc2c(n1)CN([C@H]1CO[C@H](c3cc(F)ccc3F)[C@@H](N)C1)C2`, the Cmax was 142 nM (male human; 5 mg, single dose, fasted).

Some of these lines once more:
For `CS(=O)(=O)n1cc2c(n1)CN([C@H]1CO[C@H](c3cc(F)ccc3F)[C@@H](N)C1)C2`, the Cmax was 142 nM (male human; 5 mg, single dose, fasted).
